Published values from different studies.
Each numbered part is a random draw from the data of one study; scales do not carry over between parts. Positions count from the first letter of the parent shown.

Study 1
Target: Interferon regulatory factor 7, full length, phosphomimetic (IRF7, Homo sapiens, UniProt Q92985, residues 1-503, S101K/S471D/S472D/S475D/S476D/S477D/S483D/S484D/S487D)
UniProt Q92985, sequence (whole entry, unmodified, looked up): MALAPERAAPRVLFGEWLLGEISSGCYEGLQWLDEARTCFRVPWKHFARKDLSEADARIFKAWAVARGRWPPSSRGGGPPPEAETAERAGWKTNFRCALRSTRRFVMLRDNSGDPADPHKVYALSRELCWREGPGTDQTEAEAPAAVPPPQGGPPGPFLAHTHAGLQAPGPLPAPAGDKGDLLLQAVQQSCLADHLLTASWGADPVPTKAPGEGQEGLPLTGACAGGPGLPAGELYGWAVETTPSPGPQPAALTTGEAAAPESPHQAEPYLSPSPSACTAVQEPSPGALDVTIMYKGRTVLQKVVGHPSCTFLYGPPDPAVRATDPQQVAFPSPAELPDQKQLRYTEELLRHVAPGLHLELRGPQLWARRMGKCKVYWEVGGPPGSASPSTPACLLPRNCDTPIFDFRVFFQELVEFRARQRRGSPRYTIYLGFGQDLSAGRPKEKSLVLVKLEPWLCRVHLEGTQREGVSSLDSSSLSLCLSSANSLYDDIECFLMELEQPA
Method: protein-binding microarray
Molecule type: double-stranded DNA, one strand shown
Medium: in vitro
Concentration: 250 nM
Setting: 60-bp whole probe
Together with: salmon DNA 0.4 mg/ml
Baseline: random background probes
Reading: higher = stronger binding
Shared flanks, not repeated: GCCTAGCAC … GTCTTGATTCGCTTGACGCTGCTG
The log fluorescence of `TTAGATATCGGGTATCGATTGGTGCTA` is reported as 0.797 z-score.
For `TTACCTCTCACGCATCTGAAAGTGCTA`, the log fluorescence was 0.486 z-score.
`TTAGGACTGGGCCTCGGTTAGTGCTAG` has a log fluorescence of 0.17 z-score.
`GACGGGCTGGACACTGGGGACGTGCTA` has a log fluorescence of -1.06 z-score.
For `GACGGACTGGGGTATCGGGAGGTGCTA`, the log fluorescence was -0.58 z-score.
The log fluorescence of `TCTTTTATTTTTTTTATTTAGTGCTAG` is reported as 2.32 z-score.
With `GACGATTTCAGTATCGAGAAGTGCTAG` the log fluorescence was 0.158 z-score.
The log fluorescence of `GACGGACTGGACTCTGGGGACGTGCTA` is reported as -0.588 z-score.

Study 2
Target: Centromere-binding protein 1, full length, His-tagged (CBF1, Saccharomyces cerevisiae, UniProt P17106, residues 1-351)
UniProt P17106, sequence (whole entry, looked up): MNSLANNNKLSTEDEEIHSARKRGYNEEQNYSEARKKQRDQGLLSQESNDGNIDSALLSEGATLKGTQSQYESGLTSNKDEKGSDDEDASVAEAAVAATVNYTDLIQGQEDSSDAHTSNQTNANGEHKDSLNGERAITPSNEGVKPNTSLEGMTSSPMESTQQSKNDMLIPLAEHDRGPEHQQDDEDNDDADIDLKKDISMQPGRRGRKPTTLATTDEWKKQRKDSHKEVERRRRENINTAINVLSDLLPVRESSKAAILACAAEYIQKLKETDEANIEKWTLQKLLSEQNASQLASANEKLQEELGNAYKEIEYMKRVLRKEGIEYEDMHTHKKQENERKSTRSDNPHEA
Method: competition protein-binding microarray
Molecule type: double-stranded DNA, one strand shown
Medium: in vitro
Concentration: 2 µM
Setting: whole 60-bp probe, lowest competitor level
Together with: Pho4 competitor, 0.05 µM
Reading: higher = stronger binding
For `GTCTTGTCTCATTTTCACGTGCGCTTCCCCACTTCAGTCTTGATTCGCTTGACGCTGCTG`, the fluorescence intensity was 750 a.u.
`ACCCAACAATTAAAATCCGTGATGGTTTAATGGTCAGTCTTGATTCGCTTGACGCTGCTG` has a fluorescence intensity of 128 a.u.
With `GCTTGGCATCCGTCCCACGTTATGTGGAGTGTTGCCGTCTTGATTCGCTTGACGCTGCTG` the fluorescence intensity was 70.8 a.u.
For `TGAAAAATTTTCGGTAGCGTGCTTTAGCCGGTATAAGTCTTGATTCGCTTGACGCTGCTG`, the fluorescence intensity was 81.4 a.u.
`GCTGTGTGAGCGGCCCTCGTGGCTCGGGAGGTGCTGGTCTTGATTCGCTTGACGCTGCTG` has a fluorescence intensity of 81.9 a.u.
`CATACCCAACCTTTTCACGTGGCTTAAGATATTTGTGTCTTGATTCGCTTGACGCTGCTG` has a fluorescence intensity of 932 a.u.
The fluorescence intensity of `TTGCACTAGACGAGTCACGTGGCCGTTAATCCCCCGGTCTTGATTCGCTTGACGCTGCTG` is reported as 8630 a.u.
With `CTAACGAAGGTTTGCCCTGTGGGTGACAAGCCAAGTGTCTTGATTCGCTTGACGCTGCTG` the fluorescence intensity was 61.3 a.u.

Study 3
Target: FOSL1, bZIP domain (human)
Method: DHFR protein complementation
Medium: yeast
Setting: single substitutions, most at no-binding floor
Baseline: wild-type JUN-FOS pair
Reading: higher = stronger binding
Parent: JUN, bZIP domain (human); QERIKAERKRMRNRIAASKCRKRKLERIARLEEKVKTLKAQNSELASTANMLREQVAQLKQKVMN; partner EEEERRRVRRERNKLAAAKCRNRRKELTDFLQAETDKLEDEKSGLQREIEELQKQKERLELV
`V56R` has a binding fitness of -1.41 natural log.
`V56P` gave a binding fitness of -1.4 natural log.
With `K39M` the binding fitness was -0.856 natural log.
`E32Y` gave a binding fitness of -0.825 natural log.
With `Q41M` the binding fitness was -0.604 natural log.
With `T48Q` the binding fitness was -0.266 natural log.
For `L59G`, the binding fitness was -1.33 natural log.
The binding fitness of `V56T` is reported as -1.16 natural log.

Mixed results
Parent: PafA, mature enzyme, eGFP fusion (Elizabethkingia meningoseptica, UniProt Q9KJX5); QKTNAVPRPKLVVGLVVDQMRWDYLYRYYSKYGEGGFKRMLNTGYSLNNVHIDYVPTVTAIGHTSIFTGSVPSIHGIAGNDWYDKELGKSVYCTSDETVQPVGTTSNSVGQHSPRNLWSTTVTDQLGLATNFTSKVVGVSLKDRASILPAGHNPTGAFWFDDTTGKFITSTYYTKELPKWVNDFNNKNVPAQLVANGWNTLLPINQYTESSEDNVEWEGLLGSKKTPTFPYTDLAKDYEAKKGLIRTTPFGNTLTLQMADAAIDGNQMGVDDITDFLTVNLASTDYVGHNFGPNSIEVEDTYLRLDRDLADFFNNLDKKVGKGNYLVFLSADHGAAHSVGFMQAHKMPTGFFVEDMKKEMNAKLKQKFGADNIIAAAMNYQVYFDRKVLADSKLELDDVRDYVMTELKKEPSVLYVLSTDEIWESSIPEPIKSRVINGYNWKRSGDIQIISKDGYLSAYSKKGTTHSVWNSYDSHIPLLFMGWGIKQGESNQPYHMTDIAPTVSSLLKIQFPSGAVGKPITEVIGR
For `M496G`, “phosphate dissociation constant” read 192 µM (inorganic phosphate, free oxyanion; microfluidic competitive inhibition; in vitro, cell-free expressed; not given, derived from inhibition constants, unchanged parent 615000 nM; lower = stronger binding).

For quick reference, copied from above (study 1):
For `TTACCTCTCACGCATCTGAAAGTGCTA`, the log fluorescence was 0.486 z-score.
`TTAGGACTGGGCCTCGGTTAGTGCTAG` has a log fluorescence of 0.17 z-score.
`GACGGGCTGGACACTGGGGACGTGCTA` has a log fluorescence of -1.06 z-score.
